Measurements collected from several papers.
Compare with care: the assays were run in different laboratories. Values joined by “and” are separate records of one study, mostly repeats; a detail may differ. ± gives the spread as reported.

Molecule = CN[C@@](C)(C[18F])C(=O)O; system = SCID mouse A549 xenograft, brain; conditions = 15 min, post injection; measurement = tissue uptake; result = 0.4 ± 0.1 %ID/g
Molecule = CN1C(=CC=C2CCCC(=CC=C3N(CCCCCC(=O)O)c4ccccc4C3(C)C)C2=O)C(C)(C)c2ccccc21; system = cell medium-acetonitrile; conditions = pH 7.5, 25 °C; measurement = emission maximum; result = 626 nm
Molecule = Oc1c(Cl)cc(Cl)c(Cl)c1Cc1c(O)c(Cl)cc(Cl)c1Cl; system = C57BL/6 mouse, plasma; conditions = intravenous, 10 mg/kg, single dose; measurement = half-life; result = 4.4 h
Molecule = CC(=O)Nc1ccc2c(c1)Cc1ccccc1-2; test = reconstructed skin micronucleus; system = EpiDerm reconstructed skin; conditions = concentration not given, 48 h, added: cytochalasin B 3 µg/mL; measurement = cytotoxicity threshold dose; result = 140 µg/cm2
Molecule = [123I]c1cncc(OC[C@@H]2CCN2)c1; test = SPECT; system = human, frontal lobe; conditions = intravenous bolus, 9.1 mCi; scale = baseline: tissue over plasma; measurement = tissue/plasma ratio; result = 10.6
Molecule = CSCC[C@@H]1NC(=O)[C@H](CC(=O)O)NC(=O)CNC(=O)[C@H](CCCNC(=N)N)NC(=O)[C@H](C)NC(=O)[C@H](CCC(=O)O)NC(=O)[C@H](CCCNC(=N)N)NC(=O)[C@@H]2CSSC[C@@H]3NC(=O)[C@H](CO)NC(=O)[C@H]([C@@H](C)O)NC(=O)[C@@H]4CCCN4C(=O)[C@H](C)NC(=O)[C@H](Cc4c[nH]c5ccccc45)NC(=O)[C@H](CC(=O)O)NC(=O)CNC(=O)[C@H](CCCNC(=N)N)NC(=O)CNC(=O)[C@H](CCC(N)=O)NC(=O)[C@@H]4CCCN4C(=O)[C@@H](NC(=O)CNC(=O)C(C)F)CSSC[C@H](NC(=O)CNC(=O)[C@H](C)NC(=O)[C@H](CC(C)C)NC(=O)[C@H](CSSC[C@@H](C(=O)NCC(N)=O)NC(=O)[C@H]([C@@H](C)O)NC(=O)[C@H](CCCNC(=N)N)NC(=O)[C@@H]4CCCN4C1=O)NC(=O)[C@H](CC(=O)O)NC(=O)[C@H](CO)NC(=O)[C@H](CC(=O)O)NC(=O)[C@H](CCC(N)=O)NC(=O)[C@H](CO)NC3=O)C(=O)N[C@@H](C(C)C)C(=O)N2 (stereo partly drawn) [fluorine-18 labelled]; system = nude mice U-87 MG xenograft, skin; conditions = intravenous, 1 h; measurement = tissue uptake; result = 0.68 ± 0.05 %ID/g
Molecule = CC(C)C[C@@H](N)C(=O)N[C@H]1C(=O)N[C@@H](CC(N)=O)C(=O)N[C@H]2C(=O)N[C@H]3C(=O)N[C@H](C(=O)N[C@H](C(=O)O)c4cc(O)cc(O)c4-c4cc3ccc4O)[C@H](O)c3ccc(c(Cl)c3)Oc3cc2cc(c3O[C@@H]2O[C@H](CO)[C@@H](O)[C@H](O)[C@H]2O[C@H]2C[C@](C)(N)[C@H](O)[C@H](C)O2)Oc2ccc(cc2Cl)[C@H]1O; system = New Zealand White rabbit, ciliary body; conditions = continuous topical ocular, dose not given, 24 h; scale = baseline: eye drops; measurement = AUC(0-24) ratio; result = ~10 fold
Molecule = YMDGTMSQV; test = RP-HPLC UV; system = peptide, aqueous formic acid acetonitrile; conditions = 60 min, 4 °C, added: 120 mM hydrogen peroxide; measurement = native peptide remaining; result = < 10%
Molecule = C[N+](C)(C)CCOP(=O)([O-])OCCCCCCCCCCCCCCCCCCc1ccc(C2=C3C=CC=[N+]3[B-](F)(F)n3cccc32)cc1; system = octanol/water; conditions = 48 h, pH 7.4, room temperature; measurement = logD; result = 4.59
Molecule = COc1cc(-c2nc(-c3ccccc3)c(-c3cccs3)[nH]2)cc(OC)c1OC(=O)C1=CN(C)C=CC1; system = C57BL/6 mouse, CES1 knockout, brain homogenate; conditions = 10 µM, 1 h, 37 °C; measurement = remaining compound; result = ≥ 50%
Molecule = CCCCCCCC(=O)NCC(=O)N[C@@H](Cc1ccccc1)C(=O)N[C@H](C=O)Cc1c[nH]cn1; system = male C57BL/6 mouse, plasma; conditions = dose not given; scale = baseline: intranasal over oral; measurement = plasma concentration ratio; result = 10
Molecule = Cc1sc2c(c1C)C(c1ccc(Cl)cc1)=N[C@@H](CC(=O)OC(C)(C)C)c1nnc(C)n1-2; test = LC-MS; system = Ringer's solution with 10% β-cyclodextrin; conditions = 50 ng/mL, time not given, glass vessel, plastic vial; measurement = recovery vs nominal; result = 86.2% and 86.4%

Excerpt of the above:
Molecule = CC(=O)Nc1ccc2c(c1)Cc1ccccc1-2; test = reconstructed skin micronucleus; system = EpiDerm reconstructed skin; conditions = concentration not given, 48 h, added: cytochalasin B 3 µg/mL; measurement = cytotoxicity threshold dose; result = 140 µg/cm2
